Experimental data gathered from unrelated publications.
Lines come from different studies, so protocols differ.
Target: Atypical kinase COQ8A, mitochondrial (COQ8A, Homo sapiens, UniProt Q8NI60)

SMILES	test	test system	setting	how to read	quantity	value
COc1cc(Nc2nc(C)cc(-c3cnn4nc(OC)ccc34)n2)cc(C(F)(F)F)c1	KINOMEscan binding		1000 nM	relative to: control	remaining binding	91%
CNC1C[S+]2CC[S+]3CC[S+](C1)[Ru-4]321([N]=C=S)[n]2c3ccc(OC)cc3c3c4c(c5cc(F)c[n+]1c5c32)C(=O)NC4=O (centres unmarked)	KinomeScan		0.1 µM	relative to: untreated	remaining binding	88%
COc1cc(Nc2nccc(-c3cnn4nc(OC)ccc34)n2)cc(C(F)(F)F)c1	binding, competition with immobilised ligand		1 µM		remaining binding	99%
C#CCCCCNC(=O)c1ccc(N(C(=O)C=C)c2ccc(Br)cc2)cc1	mass spectrometry profiling, measured: ADCK3	H460 cell lysate	100 µM over 10 µM, UniProt Q8NI60	relative to: high over low concentration	reactivity ratio	1.83
COc1ccc(NC(=O)Nc2ccc3c(c2)C(=O)N(C(C)CO)CC(C)C(CN(C)Cc2ccc4c(c2)OCO4)O3)cc1 (centres unmarked)	binding, competition with immobilised ligand		10 µM		remaining binding	84%
Cc1cnc2nc1Nc1cccc(c1)COC/C=C/COCc1cc(ccc1OCCN1CCOCC1)N2	binding, competition with immobilised ligand		0.1 µM		remaining binding	100%
CNC(=O)C1CCN(c2cc(C)c(F)cc2NC(=O)c2ccc(-c3cc(O)ccc3C)c(C)c2)CC1	binding, competition with immobilised ligand		1 µM		remaining binding	100%
Nc1ncc2c(n1)-c1c([nH]c3ccc(C4=CCOCC4)cc13)CCC2	binding, competition with immobilised ligand		1 µM		remaining binding	100%
C=C1CCCCCCCCCC(CO)C1=O (centres unmarked)	cell-free assay, competition with immobilised ligand		10 µM		remaining binding	98%
CC(=O)N1c2ccc(-c3ccc(CNC(=O)c4cn5cc(-c6cnc(N)nc6)nc(N6CCOCC6)c5n4)cc3)cc2CC[C@@H]1C	binding, competition with immobilised ligand		10 µM		remaining binding	75%
C=CC(=O)N1Cc2nc(-c3cc(-c4cc(Cl)cnc4Cl)c(F)cc3F)n(-c3ccncn3)c2C1	enzyme activity, inhibitor		1 µM		inhibition	28.2%
COc1c(Cl)cccc1Nc1c(-c2ccncc2C#C[C@@]2(C)CCCN2C(=O)/C=C/CN(C)C)[nH]c2c1C(=O)NCC2	cell-free assay, competition with immobilised ligand		3 µM		remaining binding	100%
CN1CCN(Cc2ccc(NC(=O)c3cccc(C#Cc4cnc(N)c5ncccc45)c3)cc2C(F)(F)F)CC1	cell-free assay, competition with immobilised ligand		0.5 µM		remaining binding	100%
CNS(=O)(=O)Nc1nccc(Cc2c(C)c3ccc(Oc4ncccc4F)cc3oc2=O)c1F	binding, competition with immobilised ligand		10 µM		remaining binding	100%
CC(C)=CC1OC(C)(C)C2C=C3C(=O)C(Cl)=CC(O)C3C3C(O)C4OC4C(=O)C132 (centres unmarked)	cell-free assay, competition with immobilised ligand		10 µM		remaining binding	84%
C=CC(=O)N1CCCC(n2c(=O)c3ncccc3n(Cc3ccc(Oc4ccccc4)cc3)c2=O)C1 (centres unmarked)	cell-free assay, competition with immobilised ligand		1 µM		remaining binding	93%
CCN1CCN(Cc2ccc(C(=O)Nc3ccc(C)c(NCc4cnc5[nH]ccc5c4OC)c3)cc2C(F)(F)F)CC1	binding, competition with immobilised ligand		1 µM		remaining binding	100%
C=CC(=O)N1CCc2ccc(-n3c(=O)ccc4cnc5ccc(-c6cnn(C)c6)cc5c43)cc21	KINOMEscan		1 µM	relative to: DMSO control	remaining binding	98%
Cc1ccc(-c2c(/C=C(\C#N)C(=O)NC(C)C)n(CCCO)c3ncnc(N)c23)cc1	cell-free assay, competition with immobilised ligand		1 µM		remaining binding	100%
CN1CCN(Cc2ccc(-c3ccc(CO[C@H]4CCC[C@@H]4NC(=O)c4cc(-c5cnn(C)c5)cnc4N)cc3)cc2)CC1	enzyme activity, inhibitor		0.1 µM		inhibition	-3%

For quick reference, copied from above:
SMILES	test	test system	setting	how to read	quantity	value
Cc1ccc(-c2c(/C=C(\C#N)C(=O)NC(C)C)n(CCCO)c3ncnc(N)c23)cc1	cell-free assay, competition with immobilised ligand		1 µM		remaining binding	100%
CC(=O)N1c2ccc(-c3ccc(CNC(=O)c4cn5cc(-c6cnc(N)nc6)nc(N6CCOCC6)c5n4)cc3)cc2CC[C@@H]1C	binding, competition with immobilised ligand		10 µM		remaining binding	75%
C=CC(=O)N1CCc2ccc(-n3c(=O)ccc4cnc5ccc(-c6cnn(C)c6)cc5c43)cc21	KINOMEscan		1 µM	relative to: DMSO control	remaining binding	98%
